{"data": "Published values from different studies", "note": "Each numbered part is a random draw from the data of one study; scales do not carry over between parts. Changes are numbered by the printed parent chain."}
{"data": "Series 1", "target": "CCND3, cyclin fold, Cln2 fusion (human)", "method": "yeast growth competition, sequencing", "medium": "yeast", "notes": "weak parent motif", "relative to": "not given", "reading": "higher = stronger binding", "parent": "LLGL2 docking peptide (human); KSLKKSLRQSFRR; partner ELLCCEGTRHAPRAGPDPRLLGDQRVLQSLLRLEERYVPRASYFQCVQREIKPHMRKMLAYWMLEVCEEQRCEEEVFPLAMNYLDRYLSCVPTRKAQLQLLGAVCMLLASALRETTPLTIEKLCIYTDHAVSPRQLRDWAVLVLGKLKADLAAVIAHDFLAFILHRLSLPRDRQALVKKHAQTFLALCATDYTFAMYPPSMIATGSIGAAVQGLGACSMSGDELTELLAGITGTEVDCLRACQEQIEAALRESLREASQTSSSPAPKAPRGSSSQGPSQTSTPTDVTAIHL"}
{"Substitution": "KSAKKSLRQSFRR [L3A]", "normalised enrichment score": 0.229}
{"Substitution": "KSLKKSLRASFRR [Q9A]", "normalised enrichment score": 0.797}
{"Substitution": "KSLKKSLRQAFRR [S10A]", "normalised enrichment score": 0.0753}
{"Substitution": "KSLKKSLRQSARR [F11A]", "normalised enrichment score": -0.107}
{"Substitution": "KSLKKALRQSFRR [S6A]", "normalised enrichment score": -0.437}
{"Substitution": "KALKKSLRQSFRR [S2A]", "normalised enrichment score": 0.662}
{"data": "Series 2", "target": "Histone acetyltransferase KAT6A, winged helix 1, GST fusion (KAT6A, Homo sapiens, UniProt Q92794, residues 1-85)", "method": "protein binding microarray", "form": "double-stranded DNA, one strand shown", "medium": "in vitro", "tested at": "not given", "notes": "8-mer, flanks averaged, mean of 2 arrays, mostly near background", "relative to": "not given", "reading": "higher = stronger binding", "Residues (chain)": "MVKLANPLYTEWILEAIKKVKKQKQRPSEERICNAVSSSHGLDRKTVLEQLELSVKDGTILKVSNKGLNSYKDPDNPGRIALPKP"}
{"Oligonucleotide": "GCGTGAGA", "E-score": 0.111}
{"Oligonucleotide": "AGATACAG", "E-score": -0.103}
{"Oligonucleotide": "GCCTCCGC", "E-score": 0.338}
{"Oligonucleotide": "GATATGGA", "E-score": -0.0686}
{"Oligonucleotide": "AACCAAAG", "E-score": -0.306}
{"Oligonucleotide": "TCTTATCA", "E-score": -0.212}
{"Oligonucleotide": "AGAAGGAC", "E-score": -0.231}
{"Oligonucleotide": "AGCCTGAA", "E-score": -0.206}
{"Oligonucleotide": "CAGAAAAG", "E-score": -0.13}
{"Oligonucleotide": "CAGCGCGG", "E-score": 0.395}
{"Oligonucleotide": "CTCATAGC", "E-score": -0.112}
{"Oligonucleotide": "GCTACCAC", "E-score": -0.0747}
{"Oligonucleotide": "CTGCACTC", "E-score": -0.136}
{"Oligonucleotide": "CCAGACCC", "E-score": 0.0281}
{"Oligonucleotide": "ACACCAGC", "E-score": -0.0684}
{"Oligonucleotide": "GGGGACCC", "E-score": 0.0454}
{"Oligonucleotide": "AGAACTGA", "E-score": -0.103}
{"Oligonucleotide": "ACTCAGAC", "E-score": -0.0571}
{"Oligonucleotide": "ACTCGTAC", "E-score": 0.0108}
{"Oligonucleotide": "ACATATCA", "E-score": -0.00227}
{"Oligonucleotide": "CGGTTGAA", "E-score": 0.00901}
{"Oligonucleotide": "CATCGTGC", "E-score": 0.0765}
{"Oligonucleotide": "GCTGAAGC", "E-score": 0.0346}
{"Oligonucleotide": "ATTTACCC", "E-score": -0.0142}
{"Oligonucleotide": "CAACCGGC", "E-score": 0.27}
{"data": "Series 3", "target": "CREBZF, bZIP domain (human)", "method": "DHFR protein complementation", "medium": "yeast", "notes": "single substitutions, most at no-binding floor", "relative to": "wild-type JUN-FOS pair", "reading": "higher = stronger binding", "parent": "JUN, bZIP domain (human); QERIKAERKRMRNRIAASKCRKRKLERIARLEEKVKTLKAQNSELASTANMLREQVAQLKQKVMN; partner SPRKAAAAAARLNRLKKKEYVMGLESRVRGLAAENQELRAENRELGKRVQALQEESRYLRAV"}
{"Substitution": "E54W", "binding fitness [natural log]": -1.47}
{"Substitution": "L38G", "binding fitness [natural log]": -1.43}
{"Substitution": "R53T", "binding fitness [natural log]": -1.55}
{"Substitution": "E33W", "binding fitness [natural log]": -1.38}
{"Substitution": "E44R", "binding fitness [natural log]": -1.47}
{"Substitution": "I28D", "binding fitness [natural log]": -1.46}
{"Substitution": "E33A", "binding fitness [natural log]": -1.29}
{"Substitution": "K34V", "binding fitness [natural log]": -1.26}
{"Substitution": "Q55T", "binding fitness [natural log]": -1.4}
{"Substitution": "T48I", "binding fitness [natural log]": -1.45}
{"Substitution": "R53S", "binding fitness [natural log]": -1.51}
{"Substitution": "E32M", "binding fitness [natural log]": -1.53}
{"Substitution": "T48A", "binding fitness [natural log]": -1.37}
{"Substitution": "K36R", "binding fitness [natural log]": -1.43}
{"data": "Series 4", "target": "Fragile X messenger ribonucleoprotein 1, C-terminal low-complexity region (Fmr1, Mus musculus, UniProt P35922)", "method": "RNA Bind-n-Seq", "form": "RNA", "medium": "in vitro", "tested at": "200 nM", "notes": "whole 134-nt RNA, ends assumed", "with": "150 mM KCl", "relative to": "input library", "reading": "higher = stronger binding", "shared flanks, not repeated": "GGGAGUUCUACAGUCCGACGAUC … UGGAAUUCUCGGGUGUCAAGG"}
{"Oligonucleotide": "CAAGUCCUGUGCUACACAUCGUAUGUACCGAAUCGGGCCCGGGCCCGGGCCCGGGAAAGUAUUAUGUUACGCCGUUCGGAUCUGCACUUC", "log2 enrichment": -0.518}
{"Oligonucleotide": "UCAAGUCCUGUGCUACACAUCGUAUGUACCGAAUCGGGAGGGAAAAAGGGUGGGAAAGUAUUAUGUUACGCCGUUCGGAUCUGCACUUCC", "log2 enrichment": 1.06}
{"Oligonucleotide": "UGGCCCUGGUGGCAUGCGGGGAGGAAGAGGUGGCCUCAUGCAUCGUGGUGGUCCCGGUGGAAUGUUCAGAGGUGGCCGUGGUGGAGACAG", "log2 enrichment": -0.0156}
{"Oligonucleotide": "CUGUGCUACACAUCGUAUGUACCGAAUCGGGAAAAAAAGGGGAAAAAAAGGAAAAAAAGGGGAAAGUAUUAUGUUACGCCGUUCGGAUCU", "log2 enrichment": -0.357}
{"Oligonucleotide": "AAGUCCUGUGCUACACAUCGUAUGUACCGAAUCGGGGAAAAGGGAAAAGGGAAAAGGAAAGUAUUAUGUUACGCCGUUCGGAUCUGCACU", "log2 enrichment": -0.272}
{"Oligonucleotide": "ACCAUGCAGGUGGGCAUCUUUGGGAAGUGGGGCAAGGGGGGGAUAGGGAGGAAAGUAACACUUUGGGAACAGGUGGUCCCAGGUCGUUUC", "log2 enrichment": 0.831}
{"Oligonucleotide": "CCUGUGCUACACAUCGUAUGUACCGAAUCGGGCCCCCCGGGCCCCCCGGGGCCCCCCGGGGAAAGUAUUAUGUUACGCCGUUCGGAUCUG", "log2 enrichment": -1.01}
{"Oligonucleotide": "UAACUUCAGAGGAGGAUCUGAUGGAUAUGGCAGUGGACGUGGAUUUGGGGAUGGCUAUAAUGGGUAUGGAGGAGGACCUGGAGGUGGCAA", "log2 enrichment": 0.289}
{"Oligonucleotide": "CCUGUGCUACACAUCGUAUGUACCGAAUCGGGAAAAAAAGGGUUUUUGGGAAAAAAAGGGAAAGUAUUAUGUUACGCCGUUCGGAUCUGC", "log2 enrichment": -0.788}
{"data": "Other studies, line by line"}
{"Substance": "PhoQ, residues 284 288 289 292 302 303 ASTSDA", "target": "PhoP, residues 12 14 15 18 19 NHFIF (Escherichia coli, UniProt P23836)", "test": "Sort-seq, item: YFP reporter", "system": "E. coli", "conditions": "PhoQ-PhoP variant library, with: 10 µM Mg2+", "scale": "relative to: high Mg2+ state, higher = stronger signaling", "quantity": "fold induction", "value": 16.8}
{"note": "Some of these lines once more (series 2):"}
{"Oligonucleotide": "CAGCGCGG", "E-score": 0.395}
{"Oligonucleotide": "CTCATAGC", "E-score": -0.112}
{"Oligonucleotide": "GCTACCAC", "E-score": -0.0747}
{"Oligonucleotide": "CTGCACTC", "E-score": -0.136}
{"Oligonucleotide": "CCAGACCC", "E-score": 0.0281}
{"Oligonucleotide": "ACACCAGC", "E-score": -0.0684}
{"Oligonucleotide": "GGGGACCC", "E-score": 0.0454}
{"Oligonucleotide": "AGAACTGA", "E-score": -0.103}
